Measurements of several laboratories.
Each line is one published result; not all experiments were run side by side. “And” joins repeats or separate records; there may be more than shown.
Chain of UniProt P33261 (whole entry, looked up): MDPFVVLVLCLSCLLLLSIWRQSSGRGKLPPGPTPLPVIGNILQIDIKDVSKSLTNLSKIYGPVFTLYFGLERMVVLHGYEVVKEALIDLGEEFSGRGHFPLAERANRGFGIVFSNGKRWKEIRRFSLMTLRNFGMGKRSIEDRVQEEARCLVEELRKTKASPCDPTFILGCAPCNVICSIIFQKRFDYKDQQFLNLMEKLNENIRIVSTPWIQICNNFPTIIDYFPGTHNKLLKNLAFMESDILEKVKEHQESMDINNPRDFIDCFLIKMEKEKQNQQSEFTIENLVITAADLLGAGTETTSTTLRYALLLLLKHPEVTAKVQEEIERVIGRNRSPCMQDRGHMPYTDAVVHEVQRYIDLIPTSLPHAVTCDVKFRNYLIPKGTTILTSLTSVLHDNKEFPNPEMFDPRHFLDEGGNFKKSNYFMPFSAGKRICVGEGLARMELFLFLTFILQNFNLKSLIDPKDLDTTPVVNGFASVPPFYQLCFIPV

Compound | target or system | assay | test system | conditions | scale | measurement | result
O=C(Nc1cnccc1-c1ccc([18F])nc1)c1ccnc(NC(=O)C2CC2)c1 |  |  | mice, transgenic, GSK-3β, early-stage, stomach | intravenous, dose not given, 120 min, added: tariquidar 15 mg/kg i.v. pre-dose |  | SUV | 0.432
C=C(NC(=O)c1csc(-c2nc3c(cc2O)-c2nc(cs2)C(=O)NC(C(C)O)C(=O)NC(=C(C)OC)c2nc(cs2)C(=O)NC2c4nc(cs4)C(=O)NC(COC(=O)c4c5c6c(cccc6n4O)COC(=O)C(OC4CC(C)(O)C(N(C)C)C(C)O4)C2OC5)c2nc-3cs2)n1)C(N)=O (stereo not drawn) |  |  | cynomolgus monkey, male, plasma | intravenous infusion, 3 mg/kg multiple doses, day 7 |  | half-life | 5.87 h
CNC(=O)C1CCCN(C(=O)C2CC3CCC2N3C(=O)[C@@H]2C[C@@H](O)CN2C(=O)NCc2cccc(Cl)c2F)C1 (mixture of isomers) | CYP2C19 (Homo sapiens, UniProt P33261) | enzyme activity, inhibitor, time-dependent inhibition |  | 16.7 µM, preincubated without NADPH | relative to: negative control | remaining activity | 97%
Cc1ncsc1-c1ccc(C(C)NC(=O)C2CC(O)CN2C(=O)C(NC(=O)CCCCCCCCCCN2CCCC(Nc3ncc(Cl)c(Nc4ccccc4S(=O)(=O)C(C)C)n3)C2)C(C)(C)C)cc1 (stereo not drawn) | 22Rv1 | RNA-seq, measured: SLC30A4 mRNA |  | concentration not given | relative to: DMSO | log2 fold change | -1.23
Cc1cc(-c2ccc(C(=O)[C@@H]3CCCC[C@H]3C(=O)Nc3cnn4c3C(=O)NCC4)cc2)[nH]n1 |  |  | human, faeces | oral, 200 mg, 24-48 h | relative to: dose | recovery of radioactivity per interval | 18.6%
CC[C@H](C)[C@H](NC(=O)[C@H](Cc1ccccc1)NC(=O)[C@H](CCC(=O)O)NC(=O)[C@H](CCCCN)NC(=O)[C@H](C)NC(=O)[C@H](C)NC(=O)[C@H](CCC(N)=O)NC(=O)CNC(=O)[C@H](CCC(=O)O)NC(=O)[C@H](CC(C)C)NC(=O)[C@H](Cc1ccc(O)cc1)NC(=O)[C@H](CO)NC(=O)[C@H](CO)NC(=O)[C@@H](NC(=O)[C@H](CC(=O)O)NC(=O)[C@H](CO)NC(=O)[C@@H](NC(=O)[C@H](Cc1ccccc1)NC(=O)[C@@H](NC(=O)CNC(=O)[C@H](CCC(=O)O)NC(=O)[C@H](C)NC(=O)[C@@H](N)Cc1c[nH]cn1)[C@@H](C)O)[C@@H](C)O)C(C)C)C(=O)N[C@@H](C)C(=O)N[C@@H](Cc1c[nH]c2ccccc12)C(=O)N[C@@H](CC(C)C)C(=O)N[C@H](C(=O)N[C@@H](CCCNC(=N)N)C(=O)NCC(=O)N[C@@H](CCCNC(=N)N)C(=O)NCC(=O)O)C(C)C |  |  | male ICR mice, plasma | intravenous, 1 mg/kg |  | AUC extrapolated | 1.52% and 0.14%
C/C(N)=N/C(=N\S(=O)(=O)c1ccc(C(F)(F)F)cc1)N1C[C@H](c2ccccc2)C(c2ccc(Cl)cc2)=N1 |  |  | male C57BL/6 mouse, liver | intravenous, 5 mg/kg |  | Cmax | 2840 ng/mL
CC(C)C[C@H](NC(=O)[C@H](CCCN)NC(=O)CNC(=O)[C@@H](NC(=O)[C@H](C)NC(=O)[C@@H]1CSCSC[C@H](NC(=O)CC[C@H](N)C(=O)O)C(=O)N[C@@H](CC(N)=O)C(=O)N[C@@H]([C@@H](C)O)C(=O)N[C@@H](C)C(=O)N[C@@H]([C@@H](C)O)C(=O)N1)[C@@H](C)O)C(=O)N[C@@H](C)C(=O)N[C@@H](CCC(=O)O)C(=O)N[C@@](C)(Cc1ccccc1)C(=O)N[C@@H](CC(C)C)C(=O)N[C@H](C(=O)N[C@@H](CCCNC(=N)N)C(=O)N[C@@H](CO)C(=O)N[C@@H](CO)C(=O)N[C@@H](CC(N)=O)C(=O)N(C)[C@@H](CC(N)=O)C(=O)N[C@@H](Cc1ccccc1)C(=O)NCC(=O)N1CCC[C@H]1C(=O)N[C@@H](CCCCNC(=O)CC[C@H](NC(=O)CC[C@H](NC(=O)CCCCCCCCCCCCCCCCCCC(=O)O)C(=O)O)C(=O)O)C(=O)N[C@@H](CC(C)C)C(=O)N1CCC[C@H]1C(=O)N1CCC[C@H]1C(=O)N[C@H](C(=O)N[C@@H](CCC(=O)O)C(=O)N[C@H](C(=O)NCC(=O)N[C@@H](CO)C(=O)N[C@@H](CC(N)=O)C(=O)N[C@H](C(=O)N[C@@H](Cc1ccc(O)cc1)C(N)=O)[C@@H](C)O)C(C)C)[C@@H](C)O)C(C)C |  |  | healthy human | subcutaneous, 12 mg |  | %AUC extrapolated | 6.4%
O=C1NC2(CC2)COc2ncc(F)cc2[C@H]2COCCN2c2ccn3ncc1c3n2 | CHL cells | chromosomal aberration test |  | 75 µg/mL, 4 h, without S9 mix |  | cells with structural aberrations | 0.3%
CC[C@H](C)[C@@H]1NC(=O)[C@H](Cc2ccc(O)cc2)NC(=O)CCCSC[C@@H](C(=O)N(CC(=O)N[C@@H](CC(C)C)C(=O)NCC(N)=O)Cc2ccc(F)cc2)NC(=O)[C@H](CC(N)=O)NC(=O)[C@H](CCC(N)=O)NC1=O |  |  | healthy women, plasma | intranasal, 400 µg single dose |  | terminal half-life | 0.66 h
COc1ccnc(C(=O)N[C@H]2COC(=O)[C@H](Cc3ccccc3)[C@@H](OC(=O)C(C)C)[C@H](C)OC2=O)c1O |  |  | straw, bran, forage, germ | -18 °C |  | storage stability of residues | 9 months
CC(=O)N[C@@H](CCCCN)C(=O)N[C@H](C(=O)N[C@@H](Cc1ccc(O)cc1)C(=O)N[C@@H](Cc1ccc(O)cc1)C(=O)N[C@@H](CCCNC(=N)N)C(=O)N[C@@H](Cc1ccc(O)cc1)C(=O)N[C@@H](CC(N)=O)C(=O)NCC(=O)N[C@@H](CCCCN)C(=O)N[C@H](C(=O)N[C@@H](Cc1c[nH]c2ccccc12)C(=O)N[C@@H](Cc1c[nH]c2ccccc12)C(=O)N[C@@H](CCCNC(=N)N)C(=O)O)C(C)C)C(C)C |  | circular dichroism | free peptide in solution | concentration not given, 25 °C, no insulin present |  | α-helix content | 11.3%
CC(C)OCCOCc1ccc(OCC(O)CN(N=O)C(C)C)cc1 (stereo not drawn) | Salmonella typhimurium | Ames test | TA1537 | 50 µg/plate, without metabolic activation | relative to: solvent control | revertant fold increase | 0.7 fold
COC1CN([C@H]2CC[C@H]([C@@]3(C)Oc4c(Cl)cc(C(=O)NCc5c(SC)cc(C)[nH]c5=O)c(C)c4O3)CC2)C1 |  | RNA-seq, measured: PLEK2 | human, whole blood | dose not given, 24 h | relative to: pretreatment baseline | log2 fold change | 2.37
CCCCC/C=C\CCCO[Si](CCCCCCN(C)C)(OCCC/C=C\CCCCC)OCCC/C=C\CCCCC |  |  |  | pH 5.5, formulated |  | zeta potential | 3.07 mV

Excerpt of the above:
Compound | target or system | assay | test system | conditions | scale | measurement | result
CC(C)OCCOCc1ccc(OCC(O)CN(N=O)C(C)C)cc1 (stereo not drawn) | Salmonella typhimurium | Ames test | TA1537 | 50 µg/plate, without metabolic activation | relative to: solvent control | revertant fold increase | 0.7 fold
C/C(N)=N/C(=N\S(=O)(=O)c1ccc(C(F)(F)F)cc1)N1C[C@H](c2ccccc2)C(c2ccc(Cl)cc2)=N1 |  |  | male C57BL/6 mouse, liver | intravenous, 5 mg/kg |  | Cmax | 2840 ng/mL
